Experimental data from different studies.
Numbered parts are unrelated; each lists some results of a single study.

Series 1 — method: RNA Bind-n-Seq; form: RNA; sample: in vitro; tested at: not given; baseline: input RNA pool; reading: higher = stronger binding
Target: RING finger protein unkempt homolog, zinc fingers 1-6, GST-SBP tag (UNK, Homo sapiens, UniProt Q9C0B0, residues 30-357)
Chain of UniProt Q9C0B0 (30-357, looked up): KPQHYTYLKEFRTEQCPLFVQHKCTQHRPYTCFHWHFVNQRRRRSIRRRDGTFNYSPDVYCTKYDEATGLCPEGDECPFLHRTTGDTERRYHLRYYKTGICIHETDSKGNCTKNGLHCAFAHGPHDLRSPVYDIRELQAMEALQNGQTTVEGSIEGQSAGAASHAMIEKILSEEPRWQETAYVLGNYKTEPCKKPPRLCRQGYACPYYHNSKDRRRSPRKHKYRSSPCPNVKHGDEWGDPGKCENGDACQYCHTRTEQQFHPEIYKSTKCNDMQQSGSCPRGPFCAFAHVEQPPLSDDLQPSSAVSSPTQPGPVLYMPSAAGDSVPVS
Notes: RNA with constant flanks, human-mouse chimeric sites, ends assumed
Oligonucleotide	bound/input enrichment
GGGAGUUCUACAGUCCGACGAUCAAAUCAUGUGUGUCCAAUAUUGAAAGUGCUUUAUCUACACUCCAGUAUGUAAGCAGUAUAGUAGUUUCUUUAGAGAAUAGGUCAGCCAUUGUGAAGUACAAUGCAAGCUUAGUCACUCCACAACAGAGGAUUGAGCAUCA	6.66 ratio
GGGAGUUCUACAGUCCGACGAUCGUGACUGGUGUUAAGAUUUCCCCUCAGCAAAGAAGUGCAGUAGUCACAAUAAUCCCUUCUGUGGUGAAUGCCAAUCAGAUUGUGGAGCUGGUCCCAGACCUCAGUUUAGACAUGGGAACUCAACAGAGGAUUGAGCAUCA	0.408 ratio
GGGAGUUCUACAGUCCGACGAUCCCUGCUCAGAUCACCAUGAAAGUAAUCCAAGGCCUAUACAGUGGGGUCACCACAGUGGAACUGGACACCCUGGCUGCUGAGACAGCCGCGACCUUGACUACUAAGCACCCUGACUAUGCCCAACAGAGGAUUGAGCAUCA	0.129 ratio
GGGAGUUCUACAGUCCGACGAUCGCUGAAAAUGAAGAAGAGGCAGCUGAUGUCUGGUACAACCUGGGGCACAUAGCUGUGGGAAUCGGAGAUACAAACUUGGCCCACCAAUGCUUCAGGCUGGCUCUGGUCCACAACAACCACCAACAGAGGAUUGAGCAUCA	0.152 ratio
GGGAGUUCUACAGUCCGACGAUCAAAGAGUGGAUAGAGUGUGCACACGGGAUCGGUGGGACCCGGGCGAAAAAGGAGUGCAAGAUAGAGUUCGAUGACUUCGAAGAGUGCUUGCUUCGGCACAAAACGAUGAGGCGAAUGCAUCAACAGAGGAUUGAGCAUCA	0.366 ratio
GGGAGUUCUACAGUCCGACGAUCGGCCUGGGACCGUCCUGGGCUAGUACAAAUAGCGGCAGUGGAGGCUCAGAGGAAAGUUUUGUUAGUGGAGGCAGUGGUAGAGGCCGUCAUGUACGGUCCUUUACUCGAUAGAUGUGUUCUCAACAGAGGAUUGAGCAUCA	0.71 ratio
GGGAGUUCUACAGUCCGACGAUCCUGUGCGGGUGACUGUCCUGGAGUGGCUGGAGUUCCCCCGGAACCUGGGCCAGACUAAUUUUAGAAAAUGCCAAGUAGGAAGUUUGUUGAGGGUGAAGUGGUCAGAGGCCGAUGGCCUGGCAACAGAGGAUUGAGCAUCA	1.75 ratio
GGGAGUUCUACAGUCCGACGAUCUUGCUACUGACUCCCUGGGUCAAGUUCCUGUGGGAAUCAUACAGGCAGUGUUUGGACCUUCUUAGAAACAAUUCUAGAGUAGAGCGCCUUUACCAUGAUAUUGCCCAACAAGCUUUCAAACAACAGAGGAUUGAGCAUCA	0.191 ratio

Series 2 — method: protein binding microarray; form: double-stranded DNA, one strand shown; sample: in vitro; tested at: not given; baseline: not given; reading: higher = stronger binding
Target: Histone acetyltransferase KAT6A, winged helix 2, GST fusion (KAT6A, Homo sapiens, UniProt Q92794, residues 85-181)
Notes: 8-mer, flanks averaged, mean of 2 arrays, mostly near background
Residues (chain): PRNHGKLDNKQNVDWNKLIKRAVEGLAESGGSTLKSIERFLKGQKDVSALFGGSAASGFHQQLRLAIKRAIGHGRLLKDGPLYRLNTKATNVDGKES
Oligonucleotide	E-score
GACGGCAC	0.117
ATTTTACA	-0.151
GGAGCGTA	0.123
CTGTAAAG	-0.0557
GAGGATCC	-0.0146
CCTAATTC	0.0166
ATACCTTG	-0.0674
CAAACCCA	0.0935
AACGGGGG	-0.0521
ATACGAGG	-0.153
CGCCCATC	0.0471
ACCGGTAA	-0.114
AGAACACG	-0.0769
ATCAACAA	0.13
ATATCGTG	0.0362
AATCCCCA	-0.126
ATTTCCTA	0.0985
GCTGCGAA	0.118
CAAGATAA	-0.171
TACCCGAA	-0.133
AGGCCCTA	-0.0138
GAAACCAC	-0.0336
GCCATGGC	-0.118
ATAATCCG	-0.0907

Series 3 — method: RNA Bind-n-Seq; form: RNA; sample: in vitro; tested at: 200 nM; notes: whole 134-nt RNA, ends assumed; added: 150 mM LiCl; baseline: input library; reading: higher = stronger binding; all molecules: 7-deaza-guanosine replaces G
Target: Ras GTPase-activating protein-binding protein 1, full length (G3BP1, Homo sapiens, UniProt Q13283)
Chain of UniProt Q13283 (whole entry, looked up): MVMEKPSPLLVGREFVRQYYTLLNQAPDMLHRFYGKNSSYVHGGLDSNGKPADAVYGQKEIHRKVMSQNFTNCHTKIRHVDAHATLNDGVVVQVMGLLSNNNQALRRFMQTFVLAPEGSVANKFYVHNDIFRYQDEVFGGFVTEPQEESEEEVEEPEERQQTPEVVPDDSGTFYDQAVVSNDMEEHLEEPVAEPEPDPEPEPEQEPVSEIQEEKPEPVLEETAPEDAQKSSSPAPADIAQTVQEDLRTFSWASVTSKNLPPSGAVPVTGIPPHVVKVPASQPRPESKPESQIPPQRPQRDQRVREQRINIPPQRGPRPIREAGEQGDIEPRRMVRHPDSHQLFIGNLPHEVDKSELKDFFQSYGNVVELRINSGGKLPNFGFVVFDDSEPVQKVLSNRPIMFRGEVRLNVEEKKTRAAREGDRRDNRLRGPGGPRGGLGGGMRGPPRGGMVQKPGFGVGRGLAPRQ
Oligonucleotide	log2 enrichment
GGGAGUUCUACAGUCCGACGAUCAGUCCUGUGCUACACAUCGUAUGUACCGAAUCGGGAAAAAAAGGGAAAAAGGGAGGGAAAGUAUUAUGUUACGCCGUUCGGAUCUGCACUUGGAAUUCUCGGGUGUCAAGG	-0.395
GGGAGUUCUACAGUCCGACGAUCUAACUUUAGAAGAGGAUCUGAUGGAUAUGGCAGUGGACGUGGAUUUGGGGAUGGCUAUAAUGGGUAUGGAGGAGGACCUGGAGGUGGCAAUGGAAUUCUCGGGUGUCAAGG	-0.137
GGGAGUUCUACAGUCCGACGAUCAGUCCUGUGCUACACAUCGUAUGUACCGAAUCGGGUUUGGGAAAGGGUUUUUUUGGGAAAGUAUUAUGUUACGCCGUUCGGAUCUGCACUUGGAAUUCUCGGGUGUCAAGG	-1.18
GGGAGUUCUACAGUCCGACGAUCUCAAGUCCUGUGCUACACAUCGUAUGUACCGAAUCGGGGAAGGAAGGGGAAGGGGAAAGUAUUAUGUUACGCCGUUCGGAUCUGCACUUCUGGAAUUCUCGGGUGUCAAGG	-0.0164
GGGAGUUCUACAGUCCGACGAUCACAAUGCAGGUGGGCAUCUUUGGGAAGUGGGGCAAGGGGGGGAUAGGGAGGGGGGUAACACUUUGGGAACAGGUGGUCCCAGGUCGUUUCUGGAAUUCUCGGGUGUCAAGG	0.239
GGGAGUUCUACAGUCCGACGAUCACCAUGCAGGUGGGCAUCUUUGGGAAGUGGGGCAAGGGGGGGACAGGGAGGGGGGUAACACUUUGGGAACAGGUGGUCCCAGGUCGUUUCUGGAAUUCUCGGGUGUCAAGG	-0.0524
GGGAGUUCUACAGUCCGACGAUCUAACUUUAGAGGAGGAUCUGAUGGAUAUGGCAGUGGACGUGGAUUCGGGGAUGGCUAUAAUGGGUAUGGAGGAGGACCUGGAGGUGGCAAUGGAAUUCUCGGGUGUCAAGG	-0.526
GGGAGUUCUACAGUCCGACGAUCCUCAAGUCCUGUGCUACACAUCGUAUGUACCGAAUCGGUUUGGUUUGGUUUGGAAAGUAUUAUGUUACGCCGUUCGGAUCUGCACUUCCAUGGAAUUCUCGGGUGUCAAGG	0.209

Series 4 — method: protein-binding microarray; form: double-stranded DNA, one strand shown; sample: in vitro; tested at: 0.8 µM; notes: whole 60-bp probe, no competitor; reading: higher = stronger binding
Target: Centromere-binding protein 1, full length, N-terminal tag (CBF1, Saccharomyces cerevisiae, UniProt P17106, residues 1-351)
Chain of UniProt P17106 (whole entry, looked up): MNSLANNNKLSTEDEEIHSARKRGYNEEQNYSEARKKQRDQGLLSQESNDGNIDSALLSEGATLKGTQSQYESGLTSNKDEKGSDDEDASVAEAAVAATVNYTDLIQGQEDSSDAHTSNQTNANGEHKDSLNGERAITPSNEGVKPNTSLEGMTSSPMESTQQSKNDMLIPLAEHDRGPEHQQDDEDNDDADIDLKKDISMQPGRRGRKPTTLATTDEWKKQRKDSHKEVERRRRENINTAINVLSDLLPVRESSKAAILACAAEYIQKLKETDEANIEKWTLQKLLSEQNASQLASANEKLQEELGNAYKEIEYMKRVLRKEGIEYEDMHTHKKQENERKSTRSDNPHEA
Oligonucleotide	fluorescence intensity [a.u.]
GAAGAGGGATCACATCACGATACTATTGTTTCTTAGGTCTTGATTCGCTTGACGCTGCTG	799
GAACCAAACTTTTAGTACGTGCCACATACACGCTAGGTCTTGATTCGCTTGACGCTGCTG	562
CTAGACAAACAGGGCCAGCTGATGCATATGTTTTTCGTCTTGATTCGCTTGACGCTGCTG	568
GAAATACACAAAGTGCACATGATCTTATAAAGTTAGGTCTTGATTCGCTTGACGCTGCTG	2100
CTATGTGCCACATATCACGTAATCATATATTGTTTCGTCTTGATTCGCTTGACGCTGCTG	566
CTAGAGCTTCCAGGTCACGGTCTACGGCGGGCGTTCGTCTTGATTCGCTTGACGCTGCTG	983
TGTACGAAGCTATAACACACGCATATAGTAGTTAGGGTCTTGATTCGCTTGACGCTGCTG	529
GAAATGCGTTCCAGTTGCATCATGTGTATTGTTTAGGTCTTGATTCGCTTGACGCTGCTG	969
GAATTTTTTTTTCATCACGCAAAGGAAATACAATAGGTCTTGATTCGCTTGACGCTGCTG	705
GAATCTGTCATCTAGCACGTTTCCCAAATGCTTTAGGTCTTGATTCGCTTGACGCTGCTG	709
CTAAAACCGCCCAATCACGCTGACCCCTTTGGCTTCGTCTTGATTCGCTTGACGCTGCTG	605
TGTACGAAGCTATTGTGCGTGCGTATAGTAGTTAGGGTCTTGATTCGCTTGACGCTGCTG	531
CTAGCATGCGACGGTATCCACGTGCAGAACAACTTCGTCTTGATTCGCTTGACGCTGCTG	4560
CCTAACTACTATATGGGCATGACATAGCTTCGTACAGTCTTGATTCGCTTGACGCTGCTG	543
GAAGCTTGTAAACATTTCGTGACTGCCCTCGAATAGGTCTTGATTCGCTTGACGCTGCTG	549
CTATATGCTAAAATTCACGTGTACGCATTTCAATTCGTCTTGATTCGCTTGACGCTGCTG	2920
CTAGCTAACCAACGTGTTGTATATGAAACCCATTTCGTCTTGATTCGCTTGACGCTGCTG	570
GAAGCGCAAGAAAGTGACGTGGCCAACTATCAGTAGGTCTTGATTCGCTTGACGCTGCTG	536
CTATATCCAGGCGGTGGTGGTGGTGGTGGTGGATTCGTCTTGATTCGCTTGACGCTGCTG	485

For quick reference, copied from above (series 2):
Oligonucleotide	E-score
ACCGGTAA	-0.114
AATCCCCA	-0.126
AGAACACG	-0.0769
GAGGATCC	-0.0146
GCTGCGAA	0.118
GGAGCGTA	0.123
ATACCTTG	-0.0674
CTGTAAAG	-0.0557
ATATCGTG	0.0362
